Published values pooled from the literature.
Each line is one published result; not all experiments were run side by side. ± marks the error that the study gave.

| Compound | test | system | setting | scale | measurement | value |
| --- | --- | --- | --- | --- | --- | --- |
| CCCCC/C=C/C=C/C(=O)NCC(C)C | – | rat plasma | 4000 ng/mL, 48 h, 4 °C, short-term storage high QC | relative to: nominal concentration | relative error | 3.75% |
| Oc1cccc(-c2cccc(O)n2)n1.[Cl-].[Cl-].[Ru+2].c1cnc2c(c1)c1c(c3cccnc32)OCCO1.c1cnc2c(c1)c1c(c3cccnc32)OCCO1 | shake flask | octanol/buffer | – | – | logP of basic form | 2 |
| CC(=O)N[C@H](CSSC[C@H](N)C(=O)O)C(=O)N[C@H](C)C(=O)N[C@H](CCCNC(=N)N)C(=O)N[C@H](CCCNC(=N)N)C(=O)N[C@H](CCCNC(=N)N)C(=O)N[C@H](C)C(=O)N[C@H](CCCNC(=N)N)C(N)=O | – | male human, plasma | intravenous, 5 mg, single dose, healthy volunteers | – | Vd | 159 L |
| CN1CCC[C@]1(C)/C=C/S(=O)(=O)NC(=O)Nc1c2c(cc3c1CCC3)CCC2 | – | human, plasma | oral, 100 mg, single dose, healthy volunteers | – | AUC(0-t) | 92300 ng·h/mL |
| COC(=O)c1ccc(-c2cn(Cc3cc(Cl)ccc3O[11CH3])nn2)cc1 | PET, 2TCM | rhesus macaque, hippocampus | dose not given | – | distribution volume VT | 0.476 mL/cm³ |
| Oc1cc(F)ccc1Oc1ccccc1 | rapid equilibrium dialysis | mouse plasma | 4 h, 37 °C | – | unbound fraction in plasma | 0.05 |
| CC(C)(O)c1ncc([S@](N)(=O)=NC(=O)Nc2c3c(cc4c2CCC4)CCC3)s1 | – | healthy human, fasted | oral, 100 mg single dose, tablet formulation | – | Cmax | 3750 ng/mL |
| CCCC[C@@H]1NC(=O)[C@@H](NC(=O)[C@H](CCC(=O)O)NC(=O)CNC(=O)CN2CCN(CC(=O)O)CCN(CC(=O)O)CCN(CC(=O)O)CC2)CCCCNC(=O)C[C@@H](C(N)=O)NC(=O)[C@H](C(C)C)NC(=O)[C@@H]2CCCN2C(=O)[C@H](CCCNC(=N)N)NC(=O)CNC(=O)[C@H](Cc2c[nH]c3ccccc23)NC(=O)[C@H](CCCNC(=N)N)NC(=O)[C@@H](Cc2ccccc2)NC(=O)[C@H](Cc2c[nH]cn2)NC(=O)[C@H](CCC(=O)O)NC1=O [gallium-67 labelled] | – | C57 mice, B16/F10 lung metastases | intravenous, 0.037 MBq, 4 h | – | urine excretion | 88.1 ± 1.12% |
| c1ccc(CN2CCOCCOCCN(CCCCCCCCCCCCCCN3CCOCCOCCN(CCCCCCCCCCCCCCN4CCOCCOCCN(Cc5ccccc5)CCOCCOCC4)CCOCCOCC3)CCOCCOCC2)cc1 | scanning electron microscopy | Escherichia coli cell surface | concentration not given, 5 min | – | aggregate size | 164 ± 22 nm |
| Cc1ccccc1/N=N/c1ccc(/N=N/c2c(O)ccc3ccccc23)c(C)c1 | – | rat whole blood QC samples | 5.0 µg/L, 12 h, room temperature, short-term stability | – | measured concentration | 5.15 µg/L |
| COCCN(CC(N)=O)C(=O)CN(CCOC)C(=O)CN(CCOC)C(=O)CN(CCOC)C(=O)CN(CCOC)C(=O)CN(CCOC)C(=O)CN(CCC(=O)O)C(=O)CN(CCCCN)C(=O)CN(CCOC)C(=O)CN(CCOC)C(=O)CN(CCOC)C(=O)CN(CCOC)C(=O)CN(CCOC)C(=O)CN(CCOC)C(=O)C(Cc1ccccc1)NC(C)=O (centres unmarked) | potentiometric titration with KOH | 100 x 1 mM KCl | – | – | pKa of NH2 group | 10.2 |
| [2H]C([2H])([2H])NC(=O)c1ccc(N2C(=S)N(c3ccc(C#N)c(C(F)(F)F)c3)C(=O)C2(C)C)cc1F | – | male human, plasma | oral, 40 mg, single dose, fasted | – | AUC | 151000 ng·h/mL |
| NC[C@@H](C(=O)Nc1ccc(-c2cn[nH]c2)cc1)c1ccccc1 | OECD 405 eye irritation | New Zealand White rabbit, eye | topical, 0.1%, 25 h (day 2), scale 0 to 4 | direction not given | cornea score | 0 |
| CC(C)c1cnc(-c2cc(Cl)ccc2F)cc1Nc1ccncc1C(=O)NC(CO)CO | monotherapy, refers to: myalgia | human patients | oral, dose not given, grade 2, phase I A | – | patients with treatment-related adverse event | 2.4% |
| CSc1ccc([C@H]2C[C@@]3(C)[C@@H](CC[C@@]3(O)C(F)(F)C(F)(F)F)[C@@H]3CCC4=CC(=O)CCC4=C32)cc1 | – | human liver microsomes | 100 % absorption assumed | – | maximal oral bioavailability | 31% |
| CSCOC1C(=O)C2(C)C(OCSC)CC3OCC3(OC(C)=O)C2C(OC(=O)c2ccccc2)C2(O)CC(OC(=O)C(O)C(C=C(C)C)NC(=O)OC(C)(C)C)C(C)=C1C2(C)C (centres unmarked) | – | female Sprague-Dawley rat, plasma | intravenous, 2 mg/kg | – | AUC(0-inf) | 271 ng·h/mL |

| Compound | test | system | setting | scale | measurement | value |
| --- | --- | --- | --- | --- | --- | --- |
| Cc1ccc(OCC(=O)O)cc1 | – | Sprague-Dawley rat, female, plasma | oral gavage, 10 mg/kg of parent drug | – | t1/2 | 1.23 h |
| N=C(N)NCCC[C@H](NC(=O)CON=C[C@H](F)[C@@H](O)[C@H](O)[C@H](O)CO)C(=O)NCC(=O)N[C@@H](CC(=O)O)C(=O)O [fluorine-18 labelled] | – | nude mice, U-87 MG xenograft | intravenous, 0.5 h | relative to: tumour over muscle | tissue ratio | 3.71 ± 1.49 |
| Cn1c(=O)oc2ccc(-c3ccc(CC(C#N)NC(=O)C4CNCCCO4)c(F)c3)cc21 (centres unmarked) | refers to: monocyte count increased | human | 40 mg single dose, fasted | – | subjects with TEAE | 0% |
| CN1CC[C@H](c2c(O)cc(O)c3c(=O)cc(/C=C/c4c(Cl)cccc4Cl)oc23)[C@H](O)C1.O=C(O)CNC(=O)c1ccccc1 | dissolution, USP paddle apparatus | water, 0.25% SLS | 120 min, 37 °C, sink conditions | – | dissolved fraction | 12% |
| CCCCN1C(=O)c2cccc3c(NCCCCCCCCCCN4CCOCC4)ccc(c23)C1=O | – | aqueous medium | pH 6 | – | average fluorescence lifetime | 4.2 ns |
| CC(NC(=O)OC1OC(C(=O)O)C(O)C(O)C1O)c1cc(Cl)ccc1Cn1c(=S)[nH]c(=O)c2[nH]ccc21 (centres unmarked) | – | Sprague-Dawley rat, female, plasma | oral, 125 mg/kg/day | relative to: rat over human 15 mg | exposure ratio | 1.4 |
| CNC(=O)N[C@]1(C)CCC[C@@]2(C)C3CC[C@@]4(C)C[C@]3(CCC21)CC4=O (single isomer, unassigned) | – | processed rat plasma | 400 ng/mL, 24 h, room temperature, autosampler stability | relative to: nominal concentration | relative error | 11.4% |
| CCOc1ccc2c(c1)C(C)=CC(C)(C)N2c1cc(OCC)cc2c1NC(C)(C)C=C2C | increased liver weight, hepatosomatic index | male BALB/c mice | oral, diet, 90 days | – | effective dose | ≥ 99 mg/kg bw/day |
| CC(O)c1ccc(C2CC3(C)C(CCC3(O)C(F)(F)C(F)(F)F)C3CCC4=CC(=O)CCC4=C23)cc1 (centres unmarked) | – | rat liver microsomes | 100 % absorption assumed | – | maximal oral bioavailability | 57% |
| CCCC[C@H](NC(=O)CNC(=O)CNC(=O)CN1CCN(CC(=O)O)CCN(CC(=O)O)CC1)C(=O)N[C@H]1CC(=O)NCCCC[C@@H](C(N)=O)NC(=O)[C@H](Cc2c[nH]c3ccccc23)NC(=O)[C@H](CCCNC(=N)N)NC(=O)[C@@H](Cc2ccccc2)NC(=O)[C@H](Cc2c[nH]cn2)NC1=O [copper-64 labelled] | – | C57 mouse female B16/F1 melanoma, urine | intravenous, 0.037 MBq, 2 h | – | urinary excretion | 91.7 ± 1.57% |
| COc1cc(NC(C)=O)c2c(c1O)-c1c(OC)c(OC)cc3c1C(C2)N(C)CC3 (centres unmarked) | – | rat heart homogenate | 0.5 µg/mL, time not given, three freeze-thaw cycles | – | remaining compound | 104 ± 2.9% |
| COCC1CN(C2CCN(c3cc(OC)c(Nc4ncc(Br)c(Nc5ccc6c(c5P(C)(C)=O)OCCO6)n4)cc3C)CC2)C1 | – | human patients | oral, 10 to 240 mg once daily | – | treatment-related Weak, all grades | 18.5% |
| Cc1cccc(O[C@H]2CCC[C@@H](C(C)CNCc3ccncc3)C2)c1 (relative stereo) | – | C57BL/6 mouse female, plasma | oral, 25 mg/kg | – | Clast | 1.05 ng/mL |
| CC(C)C[C@H](NC(=O)CNC(=O)[C@H](Cc1ccccc1)NC(=O)[C@H](CO)NC(=O)[C@H](CC(N)=O)NC(=O)[C@H](Cc1c[nH]c2ccccc12)NC(=O)[C@H](CC(N)=O)NC(=O)[C@@H](N)Cc1ccc(O)cc1)C(=O)N[C@@H](CCCNC(=N)N)C(=O)N[C@@H](Cc1ccccc1)C(N)=O | – | rat, plasma | intravenous, 1 mg/kg | – | time to undetectable plasma | 2 h |
| CC[C@H](C)[C@H](NC(=O)[C@@H]1CCCN1C(=O)CNC(=O)[C@H](Cc1ccccc1)NC(=O)[C@H](CC(N)=O)NC(=O)[C@H](CC(N)=O)NC(=O)[C@H](CO)NC(=O)[C@H](CO)NC(=O)[C@H](Cc1c[nH]cn1)NC(=O)[C@@H](NC(=O)[C@H](CC(C)C)NC(=O)[C@H](Cc1ccccc1)NC(=O)[C@H](CC(N)=O)NC(=O)[C@H](C)NC(=O)[C@H](CC(C)C)NC(=O)[C@H](CCCNC(=N)N)NC(=O)[C@H](CCC(N)=O)NC(=O)[C@@H](NC(=O)[C@H](C)NC(=O)[C@@H]1CSSC[C@H](NC(=O)[C@@H](N)CCCCN)C(=O)N[C@@H](CC(N)=O)C(=O)N[C@@H]([C@@H](C)O)C(=O)N[C@@H](C)C(=O)N[C@@H]([C@@H](C)O)C(=O)N1)[C@@H](C)O)C(C)C)C(=O)N[C@@H](CC(C)C)C(=O)N[C@@H](CO)C(=O)N1CCC[C@H]1C(=O)N[C@H](C(=O)N[C@@H](CC(N)=O)C(=O)N[C@H](C(=O)NCC(=O)N[C@@H](CO)C(=O)N[C@@H](CC(N)=O)C(=O)N[C@H](C(=O)N[C@@H](Cc1ccc(O)cc1)C(N)=O)[C@@H](C)O)C(C)C)[C@@H](C)O | ion mobility mass spectrometry | nitrogen drift gas | dimer charge +5, second conformer | – | collision cross section | 891 ± 10.1 Å² |
| N=C(N)NCCC[C@@H]1NC(=O)[C@H](Cc2c[nH]c3ccccc23)NC(=O)[C@@H](CC2CCCCC2)NC(=O)[C@@H]2CCCN2C(=O)[C@@H](NC(=O)CCc2ccccc2)CCCNC1=O | – | C57BL/6J mice, brain | intravenous, 1 mg/kg, two-compartment model | – | elimination rate constant | 0.000322 s⁻¹ |

A few entries again:
| Compound | test | system | setting | scale | measurement | value |
| --- | --- | --- | --- | --- | --- | --- |
| [2H]C([2H])([2H])NC(=O)c1ccc(N2C(=S)N(c3ccc(C#N)c(C(F)(F)F)c3)C(=O)C2(C)C)cc1F | – | male human, plasma | oral, 40 mg, single dose, fasted | – | AUC | 151000 ng·h/mL |
| NC[C@@H](C(=O)Nc1ccc(-c2cn[nH]c2)cc1)c1ccccc1 | OECD 405 eye irritation | New Zealand White rabbit, eye | topical, 0.1%, 25 h (day 2), scale 0 to 4 | direction not given | cornea score | 0 |
